Measured values collected from several papers.
Protocols differ between the studies behind these lines.

Molecule = CTCAATCTCT; tested on = Salmonella enterica Typhimurium; test = broth microdilution; system = peptide, SL1344; conditions = range over 0.3-10 µM, 24 h, 37 °C, Mueller-Hinton broth; quantity = MIC; result = > 10 µM
Molecule = capreomycin; tested on = Mycolicibacterium smegmatis; test = resazurin microtiter; system = mc2155; conditions = 24 h, 37 °C, 100 µg/mL carbenicillin medium; quantity = MIC; result = 1.1 µg/mL
Molecule = TCACTATCTC; tested on = Salmonella enterica Typhimurium; test = broth microdilution; system = peptide, SL1344; conditions = range over 0.3-10 µM, 24 h, 37 °C, Mueller-Hinton broth; quantity = MIC; result = > 10 µM
Molecule = colistin; tested on = Acinetobacter baumannii; system = clinical isolate 1A2; quantity = MIC; result = 1 µg/mL
Molecule = PMESGICTIV; tested on = human MAGI1-3/6 PDZ construct (MBP fusion); test = automated holdup; system = peptide, crude extract; conditions = concentration not given, corrected by standard peak, unit not given; how to read = relative to: biotin control resin, higher = stronger binding; quantity = binding intensity; result = 0.0743
Molecule = DAPT; tested on = Enterococcus faecalis; system = ATCC 29212; quantity = MIC; result = 6.2 µg/mL
Molecule = colistin; tested on = Acinetobacter baumannii; test = broth microdilution; system = ATCC 19606; quantity = MIC; result = 1 µg/mL
Molecule = colistin; tested on = Morganella morganii; test = broth microdilution; system = clinical isolate RKI 81/15; quantity = MIC; result = > 64 µg/mL
Molecule = CTCATACAGT; tested on = Salmonella enterica Typhimurium; test = broth microdilution; system = peptide, SL1344; conditions = range over 0.3-10 µM, 24 h, 37 °C, Mueller-Hinton broth; quantity = MIC; result = 10 µM
Molecule = GSGAGKETYY; tested on = human SCRIB PDZ3-4 tandem (MBP fusion); test = automated holdup; system = peptide, crude extract; conditions = concentration not given, uncorrected, unit not given; how to read = relative to: biotin control resin, higher = stronger binding; quantity = binding intensity; result = 0.0248
Molecule = colistin; tested on = Escherichia coli; test = broth microdilution; system = ATCC 25922; quantity = MIC; result = 0.125 µg/mL
